Published values gathered from unrelated publications.
Every numbered part comes from another study and shows a few of its results, in no order.

Sample 1
Target: Histone acetyltransferase KAT6A, winged helix 2, GST fusion (KAT6A, Homo sapiens, UniProt Q92794, residues 85-181)
Technique: protein binding microarray
Molecule type: double-stranded DNA, one strand shown
Matrix: in vitro
Concentration: not given
Setting: 8-mer, flanks averaged, mean of 2 arrays, mostly near background
Relative to: not given
Reading: higher = stronger binding
Construct (chain): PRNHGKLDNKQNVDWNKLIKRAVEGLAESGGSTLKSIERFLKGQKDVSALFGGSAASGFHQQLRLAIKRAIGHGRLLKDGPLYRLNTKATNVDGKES
Strand | E-score
CATACGGG | -0.0673
AAAAGAAT | 0.0987
CTGAAACC | 0.102
CGAAAACG | 0.0582

Sample 2
Target: Interferon regulatory factor 5, full length, phosphomimetic (IRF5, Homo sapiens, UniProt Q13568-2, residues 1-514, S451D/S453D/S456D/S462D)
Technique: protein-binding microarray
Molecule type: double-stranded DNA, one strand shown
Matrix: in vitro
Concentration: 940 nM top
Setting: 60-bp whole probe
Added: salmon DNA 0.4 mg/ml
Relative to: random background probes
Reading: higher = stronger binding
Strand | fitted relative affinity
GCCTAGCACGACGGTTTCCTGATCCTGACGTGCTAGGTCTTGATTCGCTTGACGCTGCTG | 0.528 z-score
GCCTAGCACTTAGGTTCCCTTCTCCTTTAGTGCTAGGTCTTGATTCGCTTGACGCTGCTG | 0.761 z-score
GCCTAGCACTAAGATTCCAGTTTCGATTAGTGCTAGGTCTTGATTCGCTTGACGCTGCTG | 8.72 z-score
GCCTAGCACGGATGTCTGTAGCTCATTCTGTGCTAGGTCTTGATTCGCTTGACGCTGCTG | -0.589 z-score

Single results of other studies
RBFOX2 RRM domain, GST-SBP tag: RNA binding protein fox-1 homolog 2, RRM domain, GST-SBP tag (RBFOX2, Homo sapiens, UniProt O43251-10, residues 100-194)
Substance | target | assay | system | setting | scale | measurement | value
GGGAGUUCUACAGUCCGACGAUCUAAUGAACGCACCUCGUUAAGUAUUUAUACUUGUAACUAACCCCAGGCAGGGACCUCAGCUUUGUUAGGAAUAAGGCACAAGAAGUAUUUUCUGUAGCUAUUGUUUCCUCUGGAAUUCUCGGGUGCCAA | RBFOX2 RRM domain, GST-SBP tag | RNA Bind-n-Seq | RNA, in vitro | 365 nM, natural RNA segment, single round, ends assumed | relative to: no-protein control, higher = stronger binding | RBNS enrichment (R) | 0.398
PhoQ, residues 284 288 289 292 302 303 ASTSDA | PhoP, residues 12 14 15 18 19 IQSYL (Escherichia coli, UniProt P23836) | Sort-seq, refers to: YFP reporter | E. coli | PhoQ-PhoP variant library, added: 10 µM Mg2+ | relative to: high Mg2+ state, higher = stronger signaling | fold induction | 13.9
GGGAGUUCUACAGUCCGACGAUCCCAGCUGUCCCUCAGGCUGGGGGAAAACAGGUGUUUGAUUUGUCACCGUUGGAGCUUGGAUAUGUGCGUGGCAUGUGUGUGUGUGUGUGAGAGUGUGAAUGCACAGGUGGUGGAAUUCUCGGGUGCCAA | RBFOX2 RRM domain, GST-SBP tag | RNA Bind-n-Seq | RNA, in vitro | 365 nM, natural RNA segment, single round, ends assumed | relative to: no-protein control, higher = stronger binding | RBNS enrichment (R) | 9.15
